Measurements gathered from unrelated publications.
Compare with care: the assays were run in different laboratories.
Organism: Escherichia coli

| SMILES | assay | test system | setting | MIC |
| --- | --- | --- | --- | --- |
| CC[C@H]1OC(=O)[C@H](C)[C@@H](OC(=O)Cc2c(F)cc([N+](=O)[O-])cc2F)[C@H](C)[C@@H](O[C@@H]2O[C@H](C)C[C@H](N(C)C)[C@H]2O)[C@](C)(OC)C[C@@H](C)C(=O)[C@H](C)[C@@H](O)[C@]1(C)O |  | DSM 30083 | compound alone | 128 µM |
| COC(=O)CC(C)c1n[nH]c2nc(N)[nH]c(=O)c2c1=O (stereo not shown) | microbial growth, broth dilution | BW25113 | 18 h | > 100 µg/mL |
| COc1cc(C(=O)Nc2ccc(C(=O)O)cc2)ccc1NC(=O)c1ccc(NC(=O)[C@H](Cc2c[nH]nn2)NC(=O)c2ccc(NC(=O)/C(C)=C/c3ccc(O)cc3)cc2)cc1 | broth microdilution | DSM 1116 |  | 4 µg/mL |
| CN[C@H](CC(C)C)C(=O)N[C@H]1C(=O)N[C@@H](CC(N)=O)C(=O)N[C@H]2C(=O)N[C@H]3C(=O)N[C@H](C(=O)N[C@H](C(=O)NCc4cn(CC(=O)N[C@H](C(=O)N[C@@H](CCN)C(=O)N[C@H]5CCNC(=O)[C@H]([C@@H](C)O)NC(=O)[C@H](CCN)NC(=O)[C@H](CCN)NC(=O)[C@H](CC(C)C)NC(=O)[C@@H](CC(C)C)NC(=O)[C@H](CCN)NC5=O)[C@@H](C)O)nn4)c4cc(O)cc(O)c4-c4cc3ccc4O)[C@H](O)c3ccc(c(Cl)c3)Oc3cc2cc(c3O[C@@H]2O[C@H](CO)[C@@H](O)[C@H](O)[C@H]2O[C@H]2C[C@](C)(N)[C@H](O)[C@H](C)O2)Oc2ccc(cc2Cl)[C@H]1O | broth microdilution | ATCC 25922 | 18 to 20 h | 16 µg/mL |
| Nc1nc2[nH]nc(CC(=O)O)c(=O)c2c(=O)[nH]1 | microbial growth, broth dilution | BW25113 | 18 h | > 100 µg/mL |
| CCC(CC)c1cc(CCN2CCCN(S(=O)(=O)c3ccc(C)cc3)CC2)nc(-c2ccccn2)n1 | microbial growth, broth dilution | ATCC25922 |  | > 64 µg/mL |
| CC[C@H]1OC(=O)[C@H](C)[C@@H](OC(=O)Cc2ccc([N+](=O)[O-])cc2)[C@H](C)[C@@H](O[C@@H]2O[C@H](C)C[C@H](N(C)C)[C@H]2O)[C@](C)(OC)C[C@@H](C)C(=O)[C@H](C)[C@@H](O)[C@]1(C)O |  | lpxC |  | 32 µg/mL |
| COc1ccc(O)c(/C=N/[C@@H]2CCCC[C@@H]2/N=C/c2c(O)ccc3ccc(OC)cc23)c1 | microbial growth, broth dilution |  |  | > 40 µM |
| COc1cc(C(=O)Nc2ccc(C(=O)O)c(O)c2)ccc1NC(=O)c1ccc(NC(=O)[C@H](Cc2c[nH]nn2)NC(=O)c2ccc(NC(=O)/C(C)=C/c3ccc(O)cc3)cc2)cc1 | broth microdilution | ciprofloxacin-resistant |  | 1 µg/mL |
| O=[N+]([O-])c1cc(Cl)c2cccnc2c1O | microbial growth, broth dilution | ATCC35218 |  | 8 µg/mL |
| COc1nc(C(=O)Nc2ccc(C(=O)O)nc2OC)ccc1NC(=O)c1ccc(NC(=O)[C@H](Cc2c[nH]nn2)NC(=O)c2ccc(NC(=O)/C(C)=C/c3ccc(O)cc3)cc2)cc1 | broth microdilution | ciprofloxacin-sensitive |  | 4 µg/mL |
| CC[C@H](C)[C@H](NC(=O)[C@@H](CCCNC(=N)N)NC(=O)[C@H](CCCNC(=N)N)NC(=O)[C@@H]1CCCN1C(=O)[C@@H]1CCCN1C(=O)[C@H](CCCNC(=N)N)NC(=O)[C@@H]1CCCN1C(=O)[C@H](CCCNC(=N)N)NC(=O)[C@@H]1CCCN1C(=O)[C@H](CCCNC(=N)N)NC(=O)[C@H](Cc1ccc(O)cc1)NC(=O)[C@@H]1CCCN1C(=O)[C@@H]1CCCN1C(=O)[C@H](CCCCN)NC(=O)[C@H](CC(=O)O)NC(=O)[C@@H](N)C(C)C)C(=O)N[C@@H](Cc1ccc(O)cc1)C(=O)N[C@@H](CC(N)=O)C(=O)N[C@H](CCCNC(=N)N)C(N)=O | broth microdilution | BW25113 | 18 h, 37 °C, 25% MHB2 | 8 µg/mL |
| COC(C(N)=O)C(NC(=O)c1ccc(NC(=O)c2ccc(C#N)cc2)cc1)C(=O)Nc1ccc(C(=O)Nc2ccc(C(=O)Nc3ccc(C(=O)O)cc3)c(O)c2OC(C)C)cc1 (stereo not shown) |  | BW25113 ΔacrB |  | 0.04 µg/mL |
| COc1nc(C(=O)O)ccc1NC(=O)c1ccc(NC(=O)c2ccc(NC(=O)[C@H](Cc3c[nH]nn3)NC(=O)c3ccc(NC(=O)/C(C)=C/c4ccc(O)cc4)cc3)cc2)c(OC)c1O | broth microdilution | BW25113 |  | 0.5 µg/mL |
| CN[C@H](CC(C)C)C(=O)N[C@H]1C(=O)N[C@@H](CC(N)=O)C(=O)N[C@H]2C(=O)N[C@H]3C(=O)N[C@H](C(=O)N[C@H](C(=O)O)c4cc(O)cc(O)c4-c4cc3ccc4O)[C@H](O)c3ccc(c(Cl)c3)Oc3cc2cc(c3O[C@@H]2O[C@H](CO)[C@@H](O)[C@H](O)[C@H]2O[C@H]2C[C@](C)(NCc3ccc(OCc4cn(CCCCC(=O)N[C@H](C(=O)N[C@@H](CCN)C(=O)N[C@H]5CCNC(=O)[C@H]([C@@H](C)O)NC(=O)[C@H](CCN)NC(=O)[C@H](CCN)NC(=O)[C@H](CC(C)C)NC(=O)[C@@H](CC(C)C)NC(=O)[C@H](CCN)NC5=O)[C@@H](C)O)nn4)c(OC)c3)[C@H](O)[C@H](C)O2)Oc2ccc(cc2Cl)[C@H]1O | broth microdilution | ATCC 35218, cation-adjusted Mueller-Hinton broth | 18 to 20 h, 37 °C, 0.002% polysorbate 80 | 16 µg/mL |
| CC1(C)[C@H](NC(=O)/C(=N\OC2(C(=O)O)CC2)c2nsc(N)n2)C(=O)N1OS(=O)(=O)O | agar dilution | 16-1, ESBL-producing |  | 0.5 µg/mL |
| CCCCCC[N+](C)(C)CCCCCCOc1cc(OCCCCCC[N+](C)(C)CCCCCC)cc(OCCCCCC[N+](C)(C)CCCCCC)c1.[Br-].[Br-].[Br-] |  | MC4100 |  | 1 µM |

| SMILES | assay | test system | setting | MIC |
| --- | --- | --- | --- | --- |
| C/C(=C\c1ccc(O)cc1)C(=O)Nc1ccc(C(=O)N[C@@H](Cc2c[nH]nn2)C(=O)Nc2ccc(C(=O)Nc3ccc(C(=O)Nc4ccc(C(=O)O)cc4)cc3)cc2)cc1 | broth microdilution | BW25113 |  | 0.063 µg/mL |
| NCC(=O)N1CCN(c2cc3c(cc2F)c(=O)c(C(=O)O)cn3C2CC2)CC1 | microbial growth, broth dilution | K12, MG1655 |  | 2.5 µM |
| CC1(C)[C@H](NC(=O)/C(=N\OCc2cc(=O)c(O)cn2O)c2csc(N)n2)C(=O)N1OS(=O)(=O)O | agar dilution | 16-1 ESBL |  | 2 µg/mL |
| COc1ccc2ccc(O)c(/C=N/[C@H]3CCCC[C@H]3/N=C/c3cccc(OC)c3O)c2c1 | microbial growth, broth dilution |  |  | > 40 µM |
| CC[C@H](C)[C@@H]1NC(=O)[C@@H](CC(C)C)NC(=O)[C@H](CCN)NC(=O)[C@@H](NC(=O)[C@@H](CO)NC(=O)[C@@H](NC(=O)[C@H](CCN)NC(=O)c2ccc(-c3ccccc3)cc2)[C@@H](C)O)CCNC(=O)[C@H](CC(C)C)NC(=O)[C@H](CCN)NC(=O)[C@H](CCN)NC1=O | broth microdilution | ATCC 25922, colistin-susceptible |  | 4 to 8 µg/mL |
| CCOc1c(NC(=O)c2ccc(NC(=O)c3ccc(NC(=O)[C@H](Cc4c[nH]nn4)NC(=O)c4ccc(NC(=O)/C(C)=C/c5ccc(O)cc5)cc4)cc3)c(OC)c2O)ccc(C(=O)O)c1O | broth microdilution | DSM 1116 |  | 0.031 µg/mL |
| N=C(N)NCCC[C@@H]1NC(=O)[C@H](CCCNC(=N)N)NC(=O)[C@@H](CCCNC(=N)N)NC(=O)[C@@H](CCCNC(=N)N)NC(=O)[C@@H](C(c2ccccc2)c2ccccc2)NC(=O)[C@H](Cc2c[nH]c3ccccc23)NC(=O)[C@@H](C(c2ccccc2)c2ccccc2)NC1=O |  | ATCC 25922 |  | 16 µg/mL |
| CCCCCC(=O)Oc1c(C)c(OC)c2c(c1C)OC(=O)[C@@H](CCCC)[C@]2(O)/C=C/c1ccccc1 (relative stereo) | microbial growth, broth dilution | ATCC25922 |  | 5000 µg/mL |
| C#CCOc1ccc(CN[C@@]2(C)C[C@H](O[C@H]3[C@H](Oc4c5cc6cc4Oc4ccc(cc4Cl)[C@@H](O)[C@@H](NC(=O)[C@@H](CC(C)C)NC)C(=O)N[C@@H](CC(N)=O)C(=O)N[C@H]6C(=O)N[C@H]4C(=O)N[C@H](C(=O)N[C@H](C(=O)N[C@@H](CCCNC(=N)N)C(N)=O)c6cc(O)cc(O)c6-c6cc4ccc6O)[C@H](O)c4ccc(c(Cl)c4)O5)O[C@H](CO)[C@@H](O)[C@@H]3O)O[C@@H](C)[C@H]2O)cc1OC | broth microdilution | ATCC 25922 | 18 to 20 h | 16 µg/mL |
| CC[C@H]1OC(=O)[C@H](C)[C@@H](OC(=O)Cc2ccc3c(c2)OCO3)[C@H](C)[C@@H](O[C@@H]2O[C@H](C)C[C@H](N(C)C)[C@H]2O)[C@](C)(OC)C[C@@H](C)C(=O)[C@H](C)[C@@H](O)[C@]1(C)O |  | DSM 30083 | with: colistin sulfate at 0.1 x MIC | 16 µM |
| C=CCO/N=C(\C(=O)N[C@@H]1C(=O)N(OS(=O)(=O)O)C1(C)C)c1csc(N)n1 | agar dilution | 16-1, ESBL-producing |  | 0.25 µg/mL |
| COc1c(NC(=O)c2ccc(NC(=O)c3ccc(NC(=O)[C@H](Cc4c[nH]nn4)NC(=O)c4ccc(NC(=O)/C(C)=C/c5ccc(O)cc5)cc4)cc3)cc2O)ccc(C(=O)O)c1O | broth microdilution | BW25113 |  | 0.063 µg/mL |
| CC[C@H]1OC(=O)[C@H](C)[C@@H](OC(=O)Cc2c(F)cccc2F)[C@H](C)[C@@H](O[C@@H]2O[C@H](C)C[C@H](N(C)C)[C@H]2O)[C@](C)(OC)C[C@@H](C)C(=O)[C@H](C)[C@@H](O)[C@]1(C)O |  | DSM 30083 | with: colistin sulfate at 0.1 x MIC | 64 µM |
| CCCCCCCCCCn1cc[n+](CCCCCCOc2cc(OCCCCCC[n+]3ccn(CCCCCCCCCC)c3)cc(OCCCCCC[n+]3ccn(CCCCCCCCCC)c3)c2)c1.[Br-].[Br-].[Br-] |  | MC4100 |  | 4 µM |
| COC(=O)CNC(=O)c1ccc(NC(=O)c2[nH]c(C)c(Cl)c2Cl)c(N2CCN(C(=O)OC(C)(C)C)CC2)c1 | microbial growth, broth dilution | ATCC25922 |  | > 32 µg/mL |
| CC[C@H]1OC(=O)[C@H](C)[C@@H](OC(=O)Cc2ccc(C(F)(F)F)cc2)[C@H](C)[C@@H](O[C@@H]2O[C@H](C)C[C@H](N(C)C)[C@H]2O)[C@](C)(OC)C[C@@H](C)C(=O)[C@H](C)[C@@H](O)[C@]1(C)O |  | lpxC |  | > 32 µg/mL |
| COc1cc(C(=O)O)ccc1NC(=O)c1ccc(NC(=O)c2ccc(NC(=O)[C@H](Cc3c[nH]nn3)NC(=O)c3ccc(NC(=O)/C(C)=C/c4ccc(O)cc4)cc3)cc2)c(OC)c1O | broth microdilution | ciprofloxacin-resistant |  | 0.5 µg/mL |

For quick reference, copied from above:
| SMILES | assay | test system | setting | MIC |
| --- | --- | --- | --- | --- |
| C#CCOc1ccc(CN[C@@]2(C)C[C@H](O[C@H]3[C@H](Oc4c5cc6cc4Oc4ccc(cc4Cl)[C@@H](O)[C@@H](NC(=O)[C@@H](CC(C)C)NC)C(=O)N[C@@H](CC(N)=O)C(=O)N[C@H]6C(=O)N[C@H]4C(=O)N[C@H](C(=O)N[C@H](C(=O)N[C@@H](CCCNC(=N)N)C(N)=O)c6cc(O)cc(O)c6-c6cc4ccc6O)[C@H](O)c4ccc(c(Cl)c4)O5)O[C@H](CO)[C@@H](O)[C@@H]3O)O[C@@H](C)[C@H]2O)cc1OC | broth microdilution | ATCC 25922 | 18 to 20 h | 16 µg/mL |
| CC[C@H]1OC(=O)[C@H](C)[C@@H](OC(=O)Cc2ccc3c(c2)OCO3)[C@H](C)[C@@H](O[C@@H]2O[C@H](C)C[C@H](N(C)C)[C@H]2O)[C@](C)(OC)C[C@@H](C)C(=O)[C@H](C)[C@@H](O)[C@]1(C)O |  | DSM 30083 | with: colistin sulfate at 0.1 x MIC | 16 µM |
| C=CCO/N=C(\C(=O)N[C@@H]1C(=O)N(OS(=O)(=O)O)C1(C)C)c1csc(N)n1 | agar dilution | 16-1, ESBL-producing |  | 0.25 µg/mL |
| COc1c(NC(=O)c2ccc(NC(=O)c3ccc(NC(=O)[C@H](Cc4c[nH]nn4)NC(=O)c4ccc(NC(=O)/C(C)=C/c5ccc(O)cc5)cc4)cc3)cc2O)ccc(C(=O)O)c1O | broth microdilution | BW25113 |  | 0.063 µg/mL |
